Experimental data gathered from unrelated publications.
Protocols differ between the studies behind these lines.

Cn1cnc(Cn2c(=O)[nH]/c(=N\c3cc4cn(C)nc4cc3Cl)n(Cc3cc(F)c(F)cc3F)c2=O)n1 — Cmax (human, mild renal impairment, plasma; oral, 375 mg single dose): 20500 ng/mL
CC[C@H](C)[C@H](NC(=O)[C@H](CC(C)C)NC(=O)[C@H](Cc1c[nH]c2ccccc12)NC(=O)[C@H](CCC(N)=O)NC(=O)[C@@H](NC(=O)[C@H](Cc1ccccc1)NC(=O)[C@H](C)NC(=O)[C@H](CCCCNC(=O)COCCOCCNC(=O)COCCOCCNC(=O)CC[C@H](NC(=O)CCCCCCCCCCCCCCCCCCC(=O)O)C(=O)O)NC(=O)[C@H](CCC(N)=O)NC(=O)[C@H](C)NC(=O)[C@@H](NC(=O)[C@H](CCCCN)NC(=O)[C@H](CC(=O)O)NC(=O)[C@H](CC(C)C)NC(=O)C(C)(C)NC(=O)[C@@H](NC(=O)[C@H](CO)NC(=O)[C@H](Cc1ccc(O)cc1)NC(=O)[C@H](CC(=O)O)NC(=O)[C@H](CO)NC(=O)[C@@H](NC(=O)[C@H](Cc1ccccc1)NC(=O)[C@@H](NC(=O)CNC(=O)[C@H](CCC(=O)O)NC(=O)C(C)(C)NC(=O)[C@@H](N)Cc1ccc(O)cc1)[C@@H](C)O)[C@@H](C)O)[C@@H](C)CC)[C@@H](C)CC)C(C)C)C(=O)N[C@@H](C)C(=O)NCC(=O)NCC(=O)N1CCC[C@H]1C(=O)N[C@@H](CO)C(=O)N[C@@H](CO)C(=O)NCC(=O)N[C@@H](C)C(=O)N1CCC[C@H]1C(=O)N1CCC[C@H]1C(=O)N1CCC[C@H]1C(=O)N[C@@H](CO)C(N)=O — Tmax (healthy human subjects, plasma; SC, 5/5/8/10 mg multiple ascending, day 1, median): 48 h
LTQYNRYLALYNKYK — responding donors (human CD4 T cells; AIM; peptide): 8%
O.c1cnc2c(c1)ccc1cccnc12 — inhibition (Replicase polyprotein 1ab, main protease (rep, Severe acute respiratory syndrome coronavirus 2, UniProt P0DTD1); reporter gene (mKate2), inhibitor; 20 µM): -0.976%
RIAGHHLGR — response magnitude per positive donor (AIM; peptide, CD8+ T cells from PBMC, human donors; dose not given): 106
Nc1ncnc2c([C@@H]3N[C@H](CO)[C@@H](O)[C@H]3O)c[nH]c12 — antigen-positive cells (Zaire ebolavirus; antibody staining; HeLa, Kikwit; 6.3 µM): 42.3%

Repeated from above:
RIAGHHLGR — response magnitude per positive donor (AIM; peptide, CD8+ T cells from PBMC, human donors; dose not given): 106
